Experimental data of several laboratories.
A part holds a random share of what one study measured.
UniProt P42336, sequence (whole entry, unmodified, looked up): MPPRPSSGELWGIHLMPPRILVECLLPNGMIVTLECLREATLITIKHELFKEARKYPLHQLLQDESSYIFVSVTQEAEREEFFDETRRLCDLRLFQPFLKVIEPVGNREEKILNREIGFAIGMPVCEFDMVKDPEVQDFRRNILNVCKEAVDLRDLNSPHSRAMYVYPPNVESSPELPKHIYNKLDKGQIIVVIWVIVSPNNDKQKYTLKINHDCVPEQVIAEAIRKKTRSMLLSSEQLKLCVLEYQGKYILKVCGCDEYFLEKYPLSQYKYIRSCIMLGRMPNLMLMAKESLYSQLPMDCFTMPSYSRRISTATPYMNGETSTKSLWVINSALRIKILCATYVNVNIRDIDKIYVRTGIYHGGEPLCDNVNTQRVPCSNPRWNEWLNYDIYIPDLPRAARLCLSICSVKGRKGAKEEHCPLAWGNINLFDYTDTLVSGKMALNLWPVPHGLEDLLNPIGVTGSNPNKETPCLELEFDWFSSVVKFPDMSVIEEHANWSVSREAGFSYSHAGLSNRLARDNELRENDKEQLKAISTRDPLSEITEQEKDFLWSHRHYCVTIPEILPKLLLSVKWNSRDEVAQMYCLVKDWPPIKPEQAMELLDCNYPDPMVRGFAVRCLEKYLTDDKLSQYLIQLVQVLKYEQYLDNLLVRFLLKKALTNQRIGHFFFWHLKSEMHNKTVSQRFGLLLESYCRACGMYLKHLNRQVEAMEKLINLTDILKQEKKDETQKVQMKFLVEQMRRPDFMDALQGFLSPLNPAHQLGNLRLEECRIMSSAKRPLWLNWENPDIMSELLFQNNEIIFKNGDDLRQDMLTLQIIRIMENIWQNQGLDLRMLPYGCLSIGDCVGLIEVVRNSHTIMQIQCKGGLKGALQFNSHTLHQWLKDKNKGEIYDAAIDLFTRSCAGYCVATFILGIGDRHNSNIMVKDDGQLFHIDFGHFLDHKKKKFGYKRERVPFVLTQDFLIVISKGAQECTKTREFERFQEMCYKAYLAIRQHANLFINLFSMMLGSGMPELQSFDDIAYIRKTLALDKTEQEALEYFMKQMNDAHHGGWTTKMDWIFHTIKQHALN
UniProt P11802, sequence (whole entry, looked up): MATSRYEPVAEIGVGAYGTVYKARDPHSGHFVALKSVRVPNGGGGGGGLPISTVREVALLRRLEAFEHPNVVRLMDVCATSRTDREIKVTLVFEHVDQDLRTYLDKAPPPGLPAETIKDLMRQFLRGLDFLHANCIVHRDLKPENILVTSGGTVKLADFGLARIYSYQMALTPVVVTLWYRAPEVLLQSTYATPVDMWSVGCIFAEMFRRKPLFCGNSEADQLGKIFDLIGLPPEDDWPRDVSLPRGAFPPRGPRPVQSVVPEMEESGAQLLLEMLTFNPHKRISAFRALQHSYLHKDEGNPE
UniProt Q6PHR2, sequence (whole entry, looked up): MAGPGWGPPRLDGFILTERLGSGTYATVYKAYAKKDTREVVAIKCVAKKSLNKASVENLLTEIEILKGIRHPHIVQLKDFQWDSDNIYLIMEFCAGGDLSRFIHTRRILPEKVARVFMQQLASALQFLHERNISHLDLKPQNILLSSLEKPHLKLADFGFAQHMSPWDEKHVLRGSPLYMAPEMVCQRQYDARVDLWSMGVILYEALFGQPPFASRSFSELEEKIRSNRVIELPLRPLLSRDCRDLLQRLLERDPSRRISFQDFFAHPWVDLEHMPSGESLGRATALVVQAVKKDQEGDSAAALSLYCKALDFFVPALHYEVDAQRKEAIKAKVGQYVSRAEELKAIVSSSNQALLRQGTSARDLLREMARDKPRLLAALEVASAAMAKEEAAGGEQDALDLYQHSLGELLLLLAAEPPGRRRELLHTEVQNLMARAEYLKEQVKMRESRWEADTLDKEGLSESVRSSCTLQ
UniProt Q14164, sequence (whole entry, looked up): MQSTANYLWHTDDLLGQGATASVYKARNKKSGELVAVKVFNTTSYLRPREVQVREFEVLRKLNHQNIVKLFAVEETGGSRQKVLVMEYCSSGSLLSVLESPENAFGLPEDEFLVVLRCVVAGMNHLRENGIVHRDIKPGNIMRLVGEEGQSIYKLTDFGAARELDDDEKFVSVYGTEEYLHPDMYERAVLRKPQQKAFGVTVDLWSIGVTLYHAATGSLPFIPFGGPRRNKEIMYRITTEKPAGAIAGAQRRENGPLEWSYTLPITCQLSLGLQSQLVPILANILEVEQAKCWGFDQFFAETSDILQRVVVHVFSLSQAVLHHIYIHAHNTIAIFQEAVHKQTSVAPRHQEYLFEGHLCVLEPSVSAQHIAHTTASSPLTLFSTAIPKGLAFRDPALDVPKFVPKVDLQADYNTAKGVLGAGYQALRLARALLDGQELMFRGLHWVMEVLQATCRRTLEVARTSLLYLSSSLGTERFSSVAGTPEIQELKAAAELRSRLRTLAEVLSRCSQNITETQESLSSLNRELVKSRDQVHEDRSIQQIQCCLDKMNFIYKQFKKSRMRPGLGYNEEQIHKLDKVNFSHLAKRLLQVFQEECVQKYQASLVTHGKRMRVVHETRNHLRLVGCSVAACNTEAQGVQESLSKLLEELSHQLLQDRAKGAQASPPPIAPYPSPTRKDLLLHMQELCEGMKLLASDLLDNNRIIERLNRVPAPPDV
UniProt P07948, sequence (whole entry, looked up): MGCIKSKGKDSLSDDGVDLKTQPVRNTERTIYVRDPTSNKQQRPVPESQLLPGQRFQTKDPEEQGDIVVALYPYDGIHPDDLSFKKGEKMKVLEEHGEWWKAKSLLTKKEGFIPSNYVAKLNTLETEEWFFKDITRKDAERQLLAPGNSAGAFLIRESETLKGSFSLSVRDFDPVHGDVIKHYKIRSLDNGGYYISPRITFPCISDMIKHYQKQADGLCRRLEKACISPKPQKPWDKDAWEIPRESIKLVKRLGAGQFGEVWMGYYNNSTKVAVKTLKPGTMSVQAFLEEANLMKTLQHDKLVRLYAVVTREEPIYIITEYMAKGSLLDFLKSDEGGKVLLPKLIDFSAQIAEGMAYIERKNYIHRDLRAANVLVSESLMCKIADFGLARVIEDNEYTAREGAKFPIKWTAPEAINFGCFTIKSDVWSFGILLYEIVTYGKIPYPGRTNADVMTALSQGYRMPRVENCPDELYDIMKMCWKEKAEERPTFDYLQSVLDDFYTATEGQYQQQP
UniProt O95819, sequence (whole entry, looked up): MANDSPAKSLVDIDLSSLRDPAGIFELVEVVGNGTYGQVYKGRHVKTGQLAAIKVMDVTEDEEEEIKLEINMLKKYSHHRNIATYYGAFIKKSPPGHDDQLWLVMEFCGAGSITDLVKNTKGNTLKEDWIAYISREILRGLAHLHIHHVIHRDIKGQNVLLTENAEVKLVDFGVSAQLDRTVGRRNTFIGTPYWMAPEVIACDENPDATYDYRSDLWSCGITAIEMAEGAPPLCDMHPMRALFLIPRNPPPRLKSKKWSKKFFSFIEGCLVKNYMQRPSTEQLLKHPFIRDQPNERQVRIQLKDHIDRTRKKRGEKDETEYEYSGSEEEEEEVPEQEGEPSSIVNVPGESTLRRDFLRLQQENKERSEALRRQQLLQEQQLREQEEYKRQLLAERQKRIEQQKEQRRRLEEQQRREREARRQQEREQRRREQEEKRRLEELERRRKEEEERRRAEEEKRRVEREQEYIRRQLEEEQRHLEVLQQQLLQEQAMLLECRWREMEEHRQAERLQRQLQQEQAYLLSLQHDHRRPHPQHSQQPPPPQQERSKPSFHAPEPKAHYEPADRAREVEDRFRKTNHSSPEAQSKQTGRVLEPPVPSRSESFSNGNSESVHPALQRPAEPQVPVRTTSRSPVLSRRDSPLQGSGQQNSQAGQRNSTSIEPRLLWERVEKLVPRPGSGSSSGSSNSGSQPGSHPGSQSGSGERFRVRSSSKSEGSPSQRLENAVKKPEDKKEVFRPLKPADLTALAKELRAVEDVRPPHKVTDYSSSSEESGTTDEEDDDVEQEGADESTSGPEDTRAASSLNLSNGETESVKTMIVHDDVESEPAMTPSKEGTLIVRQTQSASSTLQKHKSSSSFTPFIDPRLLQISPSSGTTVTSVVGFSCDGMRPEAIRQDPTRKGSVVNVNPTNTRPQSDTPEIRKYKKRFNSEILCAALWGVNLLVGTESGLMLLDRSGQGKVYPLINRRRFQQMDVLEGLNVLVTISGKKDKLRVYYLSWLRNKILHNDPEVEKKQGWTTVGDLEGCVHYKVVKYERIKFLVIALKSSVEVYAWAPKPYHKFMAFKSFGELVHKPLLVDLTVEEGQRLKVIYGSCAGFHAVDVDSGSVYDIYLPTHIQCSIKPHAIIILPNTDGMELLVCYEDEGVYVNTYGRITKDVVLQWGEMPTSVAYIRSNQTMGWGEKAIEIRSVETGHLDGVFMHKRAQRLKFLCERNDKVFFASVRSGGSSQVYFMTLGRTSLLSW
UniProt Q13976, sequence (whole entry, looked up): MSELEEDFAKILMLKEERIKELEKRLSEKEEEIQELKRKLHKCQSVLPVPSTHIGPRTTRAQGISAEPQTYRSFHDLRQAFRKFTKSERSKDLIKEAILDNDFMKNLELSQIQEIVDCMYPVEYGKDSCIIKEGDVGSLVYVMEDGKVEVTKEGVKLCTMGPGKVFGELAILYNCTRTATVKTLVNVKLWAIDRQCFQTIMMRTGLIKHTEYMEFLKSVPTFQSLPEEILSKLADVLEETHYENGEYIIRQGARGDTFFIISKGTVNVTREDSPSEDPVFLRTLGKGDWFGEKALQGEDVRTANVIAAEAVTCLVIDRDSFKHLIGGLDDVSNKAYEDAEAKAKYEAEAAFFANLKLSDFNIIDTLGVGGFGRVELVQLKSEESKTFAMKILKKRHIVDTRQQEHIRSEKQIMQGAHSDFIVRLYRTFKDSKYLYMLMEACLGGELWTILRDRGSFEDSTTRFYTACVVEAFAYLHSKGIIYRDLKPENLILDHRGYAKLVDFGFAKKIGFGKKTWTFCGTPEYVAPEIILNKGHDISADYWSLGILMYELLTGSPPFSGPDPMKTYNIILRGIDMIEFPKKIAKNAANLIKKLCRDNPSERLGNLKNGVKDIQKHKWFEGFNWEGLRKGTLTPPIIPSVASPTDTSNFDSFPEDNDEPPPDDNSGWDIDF

Block 1
Structure (SMILES): N#Cc1ccc(Nc2ccc3[nH]c(=O)[nH]c3c2)c(Cl)c1
Read-out: cell-free assay
Technique: competition with immobilised ligand
Concentration: 1 µM
Mitogen-activated protein kinase 12 (MAPK12, Homo sapiens, UniProt P53778) — remaining binding: 100%.
The remaining binding was 98% (Serine/threonine-protein kinase mTOR (MTOR, Homo sapiens, UniProt P42345)).
Serine/threonine-protein kinase D1 (PRKD1, Homo sapiens, UniProt Q15139) — remaining binding: 82%.
For Phosphatidylinositol 4,5-bisphosphate 3-kinase catalytic subunit alpha isoform (PIK3CA, Homo sapiens, UniProt P42336, C420R): remaining binding read 90%.
It gave 100% for remaining binding (TGF-beta receptor type-2 (TGFBR2, Homo sapiens, UniProt P37173)).
For Mitogen-activated protein kinase kinase kinase kinase 4 (MAP4K4, Homo sapiens, UniProt O95819): remaining binding read 77%.
Dual specificity mitogen-activated protein kinase kinase 3 (MAP2K3, Homo sapiens, UniProt P46734) — remaining binding: 75%.
Mitogen-activated protein kinase kinase kinase 13 (MAP3K13, Homo sapiens, UniProt O43283) — remaining binding: 100%.
Tyrosine-protein kinase JAK1, JH1 (JAK1, Homo sapiens, UniProt P23458) — remaining binding: 100%.
For Atypical kinase COQ8B, mitochondrial (COQ8B, Homo sapiens, UniProt Q96D53): remaining binding read 100%.
It gave 100% for remaining binding (Serine/threonine-protein kinase tousled-like 1 (TLK1, Homo sapiens, UniProt Q9UKI8)).
The remaining binding was 97% (Protein kinase C eta type (PRKCH, Homo sapiens, UniProt P24723)).
Serine/threonine-protein kinase 26 (STK26, Homo sapiens, UniProt Q9P289) — remaining binding: 96%.
The remaining binding was 100% (Serine/threonine-protein kinase ULK3 (ULK3, Homo sapiens, UniProt Q6PHR2)).
It gave 77% for remaining binding (Phosphatidylinositol 4,5-bisphosphate 3-kinase catalytic subunit alpha isoform (PIK3CA, Homo sapiens, UniProt P42336)).
It gave 86% for remaining binding (Cyclin-dependent kinase 4, with cyclin D1 (CDK4, Homo sapiens, UniProt P11802)).
Ephrin type-A receptor 3 (EPHA3, Homo sapiens, UniProt P29320) — remaining binding: 86%.
For Mitogen-activated protein kinase 10 (MAPK10, Homo sapiens, UniProt P53779): remaining binding read 100%.
It gave 100% for remaining binding (Phosphorylase b kinase gamma catalytic chain, skeletal muscle/heart isoform (PHKG1, Homo sapiens, UniProt Q16816)).
For Serine/threonine-protein kinase Nek1 (NEK1, Homo sapiens, UniProt Q96PY6): remaining binding read 55%.
For Serine/threonine-protein kinase SIK3 (SIK3, Homo sapiens, UniProt Q9Y2K2): remaining binding read 75%.
The remaining binding was 89% (Activin receptor type-1 (ACVR1, Homo sapiens, UniProt Q04771)).
The remaining binding was 78% (Serine/threonine-protein kinase MARK2 (MARK2, Homo sapiens, UniProt Q7KZI7)).
The remaining binding was 100% (Ribosomal protein S6 kinase alpha-1, C-terminal kinase domain (RPS6KA1, Homo sapiens, UniProt Q15418)).
For Tyrosine-protein kinase ABL1, phosphorylated (ABL1, Homo sapiens, UniProt P00519, F317L): remaining binding read 84%.

Block 2
Structure (SMILES): COc1ccc(S(=O)(=O)N(CCO)c2ccccc2CN(C)CC=Cc2ccc(Cl)cc2)cc1
Read-out: enzyme activity
Mode: inhibitor
Concentration: 0.5 µM
Relative to: control
Serine/threonine-protein kinase 10 (STK10, Homo sapiens, UniProt O94804) — remaining activity: 99.4%.
TGF-beta receptor type-1 (TGFBR1, Homo sapiens, UniProt P36897) — remaining activity: 101%.
The remaining activity was 94.6% (Cyclin-dependent kinase 4, with cyclin D1 (CDK4, Homo sapiens, UniProt P11802)).
Calcium/calmodulin-dependent protein kinase kinase 2 (CAMKK2, Homo sapiens, UniProt Q96RR4) — remaining activity: 90.7%.
cGMP-dependent protein kinase 1, isoform beta (PRKG1, Homo sapiens, UniProt Q13976) — remaining activity: 93.2%.
Calcium/calmodulin-dependent protein kinase type II subunit delta (CAMK2D, Homo sapiens, UniProt Q13557) — remaining activity: 91.8%.
It gave 92.3% for remaining activity (Tyrosine-protein kinase Lyn, isoform B (LYN, Homo sapiens, UniProt P07948)).
The remaining activity was 99.8% (Mitogen-activated protein kinase kinase kinase 3 (MAP3K3, Homo sapiens, UniProt Q99759)).
It gave 98.1% for remaining activity (Inhibitor of nuclear factor kappa-B kinase subunit beta (IKBKB, Homo sapiens, UniProt O14920)).
Death-associated protein kinase 2 (DAPK2, Homo sapiens, UniProt Q9UIK4) — remaining activity: 107%.
For Protein kinase C beta type, isoform beta-I (PRKCB, Homo sapiens, UniProt P05771): remaining activity read 97.7%.
For Serine/threonine-protein kinase STK11 (STK11, Homo sapiens, UniProt Q15831): remaining activity read 97.7%.
The remaining activity was 93.7% (Inhibitor of nuclear factor kappa-B kinase subunit epsilon (IKBKE, Homo sapiens, UniProt Q14164)).
The remaining activity was 101% (Serine/threonine-protein kinase Chk2 (CHEK2, Homo sapiens, UniProt O96017)).
It gave 97.7% for remaining activity (Cyclin-dependent kinase 5, with p25 (CDK5, Homo sapiens, UniProt Q00535)).

Block 3
Target: POU domain, class 6, transcription factor 1, POU and homeodomain (POU6F1, Homo sapiens, UniProt Q14863, residues 311-611)
Technique: protein-binding microarray
Molecule type: hairpin DNA
Medium: in vitro
Concentration: not given
Setting: whole hairpin DNA, median over replicate spots
Relative to: not given
Reading: higher = stronger binding
Constant ends, left off below: GAGGCCA … TGGCCTCACACTCTT
Target sequence (chain): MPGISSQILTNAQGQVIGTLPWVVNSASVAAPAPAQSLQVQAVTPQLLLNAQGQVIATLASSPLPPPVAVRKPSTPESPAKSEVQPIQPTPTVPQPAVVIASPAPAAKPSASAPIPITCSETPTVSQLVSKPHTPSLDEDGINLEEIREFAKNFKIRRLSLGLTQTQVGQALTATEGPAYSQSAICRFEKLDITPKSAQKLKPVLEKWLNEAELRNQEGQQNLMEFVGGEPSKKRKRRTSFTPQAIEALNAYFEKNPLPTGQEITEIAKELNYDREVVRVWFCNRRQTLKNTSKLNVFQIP
For `TAATCGGGTGCCTCCTGGCACCCGATTA (5mC at 30)`, the median fluorescence was 602 a.u.
`TAATGGGGTGCCTCCTGGCACCCCATTA (5mC at 30)` has a median fluorescence of 1940 a.u.
For `TAATTAAGTGCCTCCTGGCACTTAATTA`, the median fluorescence was 1830 a.u.
The median fluorescence of `GAATTAGGTGCCTCCTGGCACCTAATTC (5mC at 35)` is reported as 436 a.u.
`CGATTAGGTGCCTCCTGGCACCTAATCG (5mC at 34)` gave a median fluorescence of 368 a.u.
The median fluorescence of `TAATGCGGTGCCTCCTGGCACCGCATTA (5mC at 13 29)` is reported as 556 a.u.
`AAATTAGGTGCCTCCTGGCACCTAATTT` gave a median fluorescence of 602 a.u.
The median fluorescence of `TAATGGGGTGCCTCCTGGCACCCCATTA` is reported as 573 a.u.

Single results of other studies
The IC50 of `CC(C)(C)c1cnc(CSc2cnc(NC(=O)C3CCN(CCCCCCCCSc4cccc5c4CN(C4CCC(=O)NC4=O)C5=O)CC3)s2)o1` (stereo not drawn) is reported as 62 nM (HuT78; cell growth or viability, trypan blue; 48 h).
For `CN(C(=O)c1ccn2ncc(-c3ccc(C(N)=O)cc3)c2c1)c1ccc(C#N)cn1`, the IC50 was 1000 nM (Phosphatidylinositol 4-kinase beta (PI4KB, Homo sapiens, UniProt Q9UBF8); enzyme activity, inhibitor, ADP-Glo).
The Ki of `O=C(COc1ccccc1P(=O)(O)O)NCC(F)(F)c1ccc(F)c(F)c1` is reported as roughly 500000 nM (14-3-3 protein beta/alpha (Homo sapiens, UniProt P31946); inhibitor, fluorescence anisotropy competition; added: FITC-labelled client peptide).

Repeated from above (block 3):
`AAATTAGGTGCCTCCTGGCACCTAATTT` gave a median fluorescence of 602 a.u.
The median fluorescence of `TAATGGGGTGCCTCCTGGCACCCCATTA` is reported as 573 a.u.
`TAATGGGGTGCCTCCTGGCACCCCATTA (5mC at 30)` has a median fluorescence of 1940 a.u.
The median fluorescence of `TAATGCGGTGCCTCCTGGCACCGCATTA (5mC at 13 29)` is reported as 556 a.u.
For `TAATTAAGTGCCTCCTGGCACTTAATTA`, the median fluorescence was 1830 a.u.
`CGATTAGGTGCCTCCTGGCACCTAATCG (5mC at 34)` gave a median fluorescence of 368 a.u.
The median fluorescence of `GAATTAGGTGCCTCCTGGCACCTAATTC (5mC at 35)` is reported as 436 a.u.
